Experimental data pooled from the literature.
Each numbered part is a random draw from the data of one study; scales do not carry over between parts. Substitutions count along the parent as printed.

Block 1
Target: CCNB3, cyclin fold, Cln2 fusion (human)
Technique: yeast growth competition, sequencing
Medium: yeast
Notes: weak parent motif
Baseline: not given
Direction: higher = stronger binding
Starting sequence: ORC1 docking peptide (human); PRARKRLELGNLG; partner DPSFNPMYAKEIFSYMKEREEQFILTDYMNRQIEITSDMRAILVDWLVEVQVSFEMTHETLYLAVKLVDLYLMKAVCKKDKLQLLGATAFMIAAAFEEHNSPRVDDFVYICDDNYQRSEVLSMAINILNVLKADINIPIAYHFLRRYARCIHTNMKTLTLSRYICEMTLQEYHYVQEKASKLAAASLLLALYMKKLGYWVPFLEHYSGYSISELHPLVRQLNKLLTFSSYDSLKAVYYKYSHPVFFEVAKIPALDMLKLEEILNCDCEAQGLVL
| Variant | normalised enrichment score |
| --- | --- |
| R4E | 0.394 |
| R2A | 0.186 |
| N11P | 0.249 |
| P1V | -0.0498 |
| G13D | 0.239 |
| L7R | 0.361 |
| E8P | 0.145 |
| A3H | 0.248 |

Block 2
Target: RING finger protein unkempt homolog, zinc fingers 1-6, GST-SBP tag (UNK, Homo sapiens, UniProt Q9C0B0, residues 30-357)
UniProt Q9C0B0, sequence (30-357, looked up): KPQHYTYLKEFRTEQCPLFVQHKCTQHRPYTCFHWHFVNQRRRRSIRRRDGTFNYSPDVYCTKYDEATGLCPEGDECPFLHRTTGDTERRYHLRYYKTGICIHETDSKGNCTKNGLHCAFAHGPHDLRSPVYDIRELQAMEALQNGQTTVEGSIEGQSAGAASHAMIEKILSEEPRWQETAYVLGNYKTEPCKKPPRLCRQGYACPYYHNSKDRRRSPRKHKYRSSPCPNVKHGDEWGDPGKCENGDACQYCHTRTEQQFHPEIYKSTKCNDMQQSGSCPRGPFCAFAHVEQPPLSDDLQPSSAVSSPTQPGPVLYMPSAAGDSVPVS
Technique: RNA Bind-n-Seq
Molecule type: RNA
Medium: in vitro
Tested at: not given
Notes: RNA with constant flanks, human-mouse chimeric sites, ends assumed
Baseline: input RNA pool
Direction: higher = stronger binding
All sequences stand within: GGGAGUUCUACAGUCCGACGAUC … CAACAGAGGAUUGAGCAUCA
| Sequence | bound/input enrichment [ratio] |
| --- | --- |
| CUGGCACUGUAUCAGAUAUAUUAAUUUUUUAAUGUAGAUGUAAUUUUAAAAAUGAAUGGCUACUUUACACGUUUAACUAGGGUUUUACUACAUAUGUGUACAUAUGUAUAUAUAUAUAUA | 6.11 |
| UCUUUAAAAAAAAAAUUACCUUUUCUGACAGUGCUUUAUGGAGUAAAGGUCCAGGUUCAAGCUCAAAGAGCAAAGGCUUUGCACGGAGCUCAAACAUCUGAUGAAGAAAGAUUUCUGAGA | 0.147 |
| AAAGAAUGGAUAGAGUGUGCACAUGGAAUCGGUGGGACCCGGGCGAAAAAGGAGUGCAAGAUAGAGUUCGAUGACUUCGAAGAGUGCUUGCUUCGGUACAAAACGAUGAGGCGAAUGCAU | 0.467 |
| CGCUGGCCCAAGCUGAUGGACUCUGAUCUUGAUCUCUUCUCAGGCACGUGUGCCUUCUCUUAGUUAUUGUUUUCGGGAUGUUAUGAAUCUCAGUACUGUGGUUUGAAAGCACCAGCUUUG | 4.13 |
| GAUAAGAAAAGCUUGUUGGAGACCCGCUUGCAUGUCACUGGUAGAGACCUGAGGUGUCAAAUAGCUGAAACUUUCGGAUUUCAAGAAAAUUAUAUCAAGAUCGUAAUAAAUAAGAAACAG | 0.59 |
| ACUCAGAGAUCCACCUCCCAAAGUGCUGGGAGUAAAGGUGUGGCCACCACACCUAACUUCAUAGACAUAUAUUUUUUUUAAUAUGAAUCUUCCUGUUCGUCCAGGGAAGAAAGAUUUGUU | 5.43 |
| CAGCGCCGAGGCCGCGGGUGCCCGCCGGGCCUCCCCAGCCGCCGCCAUGGGCAUCAAAUUUUUAGAAGUUAUCAAACCAUUCUGUGCAGUUCUACCAGAAAUUCAGAAACCGGAAAGGAA | 1.13 |
| AAGGUGAUGACUAUGUUUGUCCAACGACAGGUAUUUUCGGAGAGCAAAGAUGAGAUUGCGUUAGUCCUGUUUGGUACAGAUGGCACUGAUAAUGCCCUUGCUGGCAAGGACCAGUAUCAG | 0.144 |

Block 3
Target: CEP164, C-terminal peptide (human)
Technique: DHFR complementation, deep sequencing
Medium: yeast
Notes: single substitutions, model-inferred values
Baseline: wild type
Direction: higher = weaker binding
Starting sequence: PDZK1, PDZ domain 2 (human); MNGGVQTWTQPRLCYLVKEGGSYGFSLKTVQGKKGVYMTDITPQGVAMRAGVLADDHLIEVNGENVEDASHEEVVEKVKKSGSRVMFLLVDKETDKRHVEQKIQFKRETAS; partner HNRVKVYRF
| Variant | binding free energy change [kcal/mol] |
| --- | --- |
| K96I | 0.02 |
| I41F | 1.53 |
| Q101L | 0.0147 |
| K106D | -0.115 |
| T42R | 0.195 |
| E72C | 0.634 |
| T42W | 0.532 |
| L58P | -0.122 |

Other studies, line by line
Starting sequence: PafA, mature enzyme, eGFP fusion (Elizabethkingia meningoseptica, UniProt Q9KJX5); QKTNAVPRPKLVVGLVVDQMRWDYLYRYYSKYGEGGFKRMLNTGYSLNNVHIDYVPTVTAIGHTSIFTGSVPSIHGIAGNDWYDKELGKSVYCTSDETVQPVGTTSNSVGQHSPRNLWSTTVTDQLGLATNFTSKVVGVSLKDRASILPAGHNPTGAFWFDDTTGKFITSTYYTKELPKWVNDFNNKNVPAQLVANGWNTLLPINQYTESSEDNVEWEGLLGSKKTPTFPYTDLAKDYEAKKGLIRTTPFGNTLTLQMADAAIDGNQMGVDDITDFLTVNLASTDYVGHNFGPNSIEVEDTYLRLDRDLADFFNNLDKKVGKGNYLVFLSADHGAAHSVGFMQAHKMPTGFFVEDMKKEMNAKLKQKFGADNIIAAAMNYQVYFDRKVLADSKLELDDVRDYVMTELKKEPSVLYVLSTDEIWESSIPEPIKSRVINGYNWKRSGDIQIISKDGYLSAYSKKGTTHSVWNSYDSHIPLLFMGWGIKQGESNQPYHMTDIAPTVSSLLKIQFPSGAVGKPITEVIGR
| Variant | target | test | system | conditions | scale | endpoint | value |
| --- | --- | --- | --- | --- | --- | --- | --- |
| S425G | tungstate, free oxyanion | microfluidic competitive inhibition | in vitro, cell-free expressed | not given, derived from inhibition constants, unchanged parent 2230 nM | lower = stronger binding | oxyanion analog dissociation constant | 2370 nM |
